Experimental data pooled from the literature.
A part holds a random share of what one study measured.
Sequence of UniProt Q9BUB5 (whole entry, looked up): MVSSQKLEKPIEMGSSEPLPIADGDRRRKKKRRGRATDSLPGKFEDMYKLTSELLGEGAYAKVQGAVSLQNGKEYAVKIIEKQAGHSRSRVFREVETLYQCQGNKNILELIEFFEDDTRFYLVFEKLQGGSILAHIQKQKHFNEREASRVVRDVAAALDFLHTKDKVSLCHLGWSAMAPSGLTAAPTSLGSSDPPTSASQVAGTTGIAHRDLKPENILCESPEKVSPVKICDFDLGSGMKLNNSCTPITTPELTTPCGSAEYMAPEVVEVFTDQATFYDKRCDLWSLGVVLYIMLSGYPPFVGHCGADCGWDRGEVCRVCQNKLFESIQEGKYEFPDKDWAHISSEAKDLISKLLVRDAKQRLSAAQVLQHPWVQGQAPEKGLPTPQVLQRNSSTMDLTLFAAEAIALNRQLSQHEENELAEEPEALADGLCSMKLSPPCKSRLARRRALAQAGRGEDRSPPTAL
Sequence of UniProt P10721 (whole entry, unmodified, looked up): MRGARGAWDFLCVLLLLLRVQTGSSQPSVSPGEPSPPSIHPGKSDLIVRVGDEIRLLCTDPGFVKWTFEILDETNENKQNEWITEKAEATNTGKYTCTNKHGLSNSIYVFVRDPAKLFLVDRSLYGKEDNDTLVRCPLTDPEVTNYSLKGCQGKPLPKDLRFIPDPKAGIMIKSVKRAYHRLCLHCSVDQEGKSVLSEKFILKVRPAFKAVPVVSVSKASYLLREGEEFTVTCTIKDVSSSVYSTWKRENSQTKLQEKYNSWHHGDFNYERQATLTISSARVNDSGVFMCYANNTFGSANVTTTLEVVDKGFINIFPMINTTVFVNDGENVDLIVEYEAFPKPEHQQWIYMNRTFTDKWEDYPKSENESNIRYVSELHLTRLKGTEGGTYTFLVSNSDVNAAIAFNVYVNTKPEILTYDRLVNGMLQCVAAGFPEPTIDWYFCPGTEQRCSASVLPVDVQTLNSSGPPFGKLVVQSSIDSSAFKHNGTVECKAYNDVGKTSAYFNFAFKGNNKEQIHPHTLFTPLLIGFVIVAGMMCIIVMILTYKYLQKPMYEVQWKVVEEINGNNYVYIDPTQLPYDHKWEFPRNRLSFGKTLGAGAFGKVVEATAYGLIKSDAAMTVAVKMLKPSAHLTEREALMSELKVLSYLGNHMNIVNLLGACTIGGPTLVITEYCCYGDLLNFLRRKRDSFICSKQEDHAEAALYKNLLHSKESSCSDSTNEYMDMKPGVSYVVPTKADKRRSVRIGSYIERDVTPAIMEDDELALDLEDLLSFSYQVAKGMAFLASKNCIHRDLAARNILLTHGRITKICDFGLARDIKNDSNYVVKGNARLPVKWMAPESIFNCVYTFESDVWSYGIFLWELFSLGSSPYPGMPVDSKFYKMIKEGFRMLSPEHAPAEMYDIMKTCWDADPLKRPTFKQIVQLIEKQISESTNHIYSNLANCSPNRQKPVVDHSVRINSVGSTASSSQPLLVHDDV
Sequence of UniProt P51957 (whole entry, looked up): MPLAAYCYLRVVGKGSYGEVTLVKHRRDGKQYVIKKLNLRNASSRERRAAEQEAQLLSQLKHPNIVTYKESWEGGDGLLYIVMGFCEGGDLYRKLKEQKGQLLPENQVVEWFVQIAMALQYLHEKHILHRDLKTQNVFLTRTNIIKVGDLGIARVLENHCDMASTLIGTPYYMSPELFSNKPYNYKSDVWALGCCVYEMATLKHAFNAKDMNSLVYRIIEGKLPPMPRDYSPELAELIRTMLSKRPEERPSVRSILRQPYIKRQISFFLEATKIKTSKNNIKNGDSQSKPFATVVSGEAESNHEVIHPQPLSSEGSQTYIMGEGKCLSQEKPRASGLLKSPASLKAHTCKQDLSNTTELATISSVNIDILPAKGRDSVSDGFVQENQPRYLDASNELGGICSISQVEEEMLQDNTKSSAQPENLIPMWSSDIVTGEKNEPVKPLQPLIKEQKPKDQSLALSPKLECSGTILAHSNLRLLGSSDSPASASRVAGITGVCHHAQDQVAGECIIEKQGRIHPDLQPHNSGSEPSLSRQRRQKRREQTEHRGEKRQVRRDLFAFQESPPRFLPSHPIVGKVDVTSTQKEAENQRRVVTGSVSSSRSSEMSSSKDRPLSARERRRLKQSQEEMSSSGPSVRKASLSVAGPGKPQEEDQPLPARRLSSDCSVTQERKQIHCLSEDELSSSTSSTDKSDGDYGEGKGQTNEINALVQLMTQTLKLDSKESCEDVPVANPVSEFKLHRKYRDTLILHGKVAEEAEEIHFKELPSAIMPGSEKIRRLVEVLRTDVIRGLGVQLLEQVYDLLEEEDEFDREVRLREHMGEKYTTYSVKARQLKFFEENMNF
Sequence of UniProt Q13557 (whole entry, looked up): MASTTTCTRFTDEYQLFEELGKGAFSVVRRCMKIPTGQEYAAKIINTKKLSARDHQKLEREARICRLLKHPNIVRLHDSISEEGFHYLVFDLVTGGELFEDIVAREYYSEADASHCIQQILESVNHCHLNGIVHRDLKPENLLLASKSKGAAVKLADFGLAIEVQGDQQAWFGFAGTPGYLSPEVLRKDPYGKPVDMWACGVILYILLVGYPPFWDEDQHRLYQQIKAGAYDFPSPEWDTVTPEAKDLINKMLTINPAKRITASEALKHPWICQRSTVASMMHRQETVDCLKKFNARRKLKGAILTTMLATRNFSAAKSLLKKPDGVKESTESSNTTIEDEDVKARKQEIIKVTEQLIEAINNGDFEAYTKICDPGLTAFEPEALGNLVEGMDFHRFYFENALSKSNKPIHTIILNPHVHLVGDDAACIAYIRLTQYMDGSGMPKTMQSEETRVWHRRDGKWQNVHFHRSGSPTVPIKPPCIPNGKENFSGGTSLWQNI
Sequence of UniProt P51817 (whole entry, looked up): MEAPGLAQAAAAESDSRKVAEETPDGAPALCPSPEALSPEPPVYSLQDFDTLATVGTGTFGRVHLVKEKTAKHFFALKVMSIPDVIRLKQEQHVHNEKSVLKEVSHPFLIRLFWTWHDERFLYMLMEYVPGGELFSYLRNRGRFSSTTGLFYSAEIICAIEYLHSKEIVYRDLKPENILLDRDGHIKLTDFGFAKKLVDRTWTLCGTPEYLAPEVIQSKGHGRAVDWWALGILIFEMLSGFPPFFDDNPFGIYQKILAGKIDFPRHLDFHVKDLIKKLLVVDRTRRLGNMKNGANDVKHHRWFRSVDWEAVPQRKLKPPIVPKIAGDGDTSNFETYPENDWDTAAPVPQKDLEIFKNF
Sequence of UniProt P78356 (whole entry, looked up): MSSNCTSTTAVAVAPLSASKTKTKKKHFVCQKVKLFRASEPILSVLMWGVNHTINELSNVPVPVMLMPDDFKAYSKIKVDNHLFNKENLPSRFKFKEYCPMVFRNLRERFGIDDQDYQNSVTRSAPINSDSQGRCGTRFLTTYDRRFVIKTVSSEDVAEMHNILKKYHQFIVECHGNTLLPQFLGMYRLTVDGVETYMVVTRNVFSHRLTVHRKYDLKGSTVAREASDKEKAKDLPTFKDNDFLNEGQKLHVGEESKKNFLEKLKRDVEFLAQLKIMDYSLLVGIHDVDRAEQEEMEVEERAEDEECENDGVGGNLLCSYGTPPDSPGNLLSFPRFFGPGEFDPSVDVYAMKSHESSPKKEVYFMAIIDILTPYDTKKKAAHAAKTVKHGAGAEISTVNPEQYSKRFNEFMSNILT

Block 1
SMILES: O=C(NS(=O)(=O)c1ccc(NCC2CCOCC2)c([N+](=O)[O-])c1)c1ccc(N2CCN(Cc3ccc(C(F)(F)F)cc3-c3ccc(Cl)cc3)CC2)cc1Oc1cnc2[nH]ccc2c1
Read-out: cell-free assay
Method: competition with immobilised ligand
Tested at: 1 µM
Mast/stem cell growth factor receptor Kit (KIT, Homo sapiens, UniProt P10721, D816H) — remaining binding: 76%.
For Serine/threonine-protein kinase Nek4 (NEK4, Homo sapiens, UniProt P51957): remaining binding read 100%.
It gave 100% for remaining binding (Phosphatidylinositol 5-phosphate 4-kinase type-2 beta (PIP4K2B, Homo sapiens, UniProt P78356)).
It gave 100% for remaining binding (Proto-oncogene tyrosine-protein kinase receptor Ret (RET, Homo sapiens, UniProt P07949, M918T)).
ALK tyrosine kinase receptor (ALK, Homo sapiens, UniProt Q9UM73, C1156Y) — remaining binding: 100%.
The remaining binding was 89% (STE20/SPS1-related proline-alanine-rich protein kinase (STK39, Homo sapiens, UniProt Q9UEW8)).
It gave 100% for remaining binding (cAMP-dependent protein kinase catalytic subunit PRKX (PRKX, Homo sapiens, UniProt P51817)).
It gave 99% for remaining binding (Serine/threonine-protein kinase 32A (STK32A, Homo sapiens, UniProt Q8WU08)).
It gave 99% for remaining binding (Calcium/calmodulin-dependent protein kinase kinase 2 (CAMKK2, Homo sapiens, UniProt Q96RR4)).
Ephrin type-A receptor 1 (EPHA1, Homo sapiens, UniProt P21709) — remaining binding: 98%.
MAP kinase-interacting serine/threonine-protein kinase 1 (MKNK1, Homo sapiens, UniProt Q9BUB5) — remaining binding: 99%.

Block 2
Host: human
Sample: microsomes or S9
Tested at: 2 µM
Time: 0.5 h
CCC(c1ccccn1)n1cc(-c2nn(C)c3cccc(Cl)c23)nn1 (stereo not drawn) gave a remaining compound of 80.2%.
For COc1ccc(F)c(-c2nc(COc3ccc(-n4cncn4)cc3)c(C)o2)c1, the remaining compound was 55.8%.
CCn1c2ccccc2n2cc(-c3ccc4c(c3)OCO4)nc12 gave a remaining compound of 0.144%.
For COc1ccc(-c2cn3c(C(=O)N4CCN(C/C=C/c5ccccc5)CC4)csc3n2)cc1, the remaining compound was 0%.

Block 3
Target: Rho-associated protein kinase 2 (ROCK2, Homo sapiens, UniProt O75116)
Sequence of UniProt O75116 (whole entry, looked up): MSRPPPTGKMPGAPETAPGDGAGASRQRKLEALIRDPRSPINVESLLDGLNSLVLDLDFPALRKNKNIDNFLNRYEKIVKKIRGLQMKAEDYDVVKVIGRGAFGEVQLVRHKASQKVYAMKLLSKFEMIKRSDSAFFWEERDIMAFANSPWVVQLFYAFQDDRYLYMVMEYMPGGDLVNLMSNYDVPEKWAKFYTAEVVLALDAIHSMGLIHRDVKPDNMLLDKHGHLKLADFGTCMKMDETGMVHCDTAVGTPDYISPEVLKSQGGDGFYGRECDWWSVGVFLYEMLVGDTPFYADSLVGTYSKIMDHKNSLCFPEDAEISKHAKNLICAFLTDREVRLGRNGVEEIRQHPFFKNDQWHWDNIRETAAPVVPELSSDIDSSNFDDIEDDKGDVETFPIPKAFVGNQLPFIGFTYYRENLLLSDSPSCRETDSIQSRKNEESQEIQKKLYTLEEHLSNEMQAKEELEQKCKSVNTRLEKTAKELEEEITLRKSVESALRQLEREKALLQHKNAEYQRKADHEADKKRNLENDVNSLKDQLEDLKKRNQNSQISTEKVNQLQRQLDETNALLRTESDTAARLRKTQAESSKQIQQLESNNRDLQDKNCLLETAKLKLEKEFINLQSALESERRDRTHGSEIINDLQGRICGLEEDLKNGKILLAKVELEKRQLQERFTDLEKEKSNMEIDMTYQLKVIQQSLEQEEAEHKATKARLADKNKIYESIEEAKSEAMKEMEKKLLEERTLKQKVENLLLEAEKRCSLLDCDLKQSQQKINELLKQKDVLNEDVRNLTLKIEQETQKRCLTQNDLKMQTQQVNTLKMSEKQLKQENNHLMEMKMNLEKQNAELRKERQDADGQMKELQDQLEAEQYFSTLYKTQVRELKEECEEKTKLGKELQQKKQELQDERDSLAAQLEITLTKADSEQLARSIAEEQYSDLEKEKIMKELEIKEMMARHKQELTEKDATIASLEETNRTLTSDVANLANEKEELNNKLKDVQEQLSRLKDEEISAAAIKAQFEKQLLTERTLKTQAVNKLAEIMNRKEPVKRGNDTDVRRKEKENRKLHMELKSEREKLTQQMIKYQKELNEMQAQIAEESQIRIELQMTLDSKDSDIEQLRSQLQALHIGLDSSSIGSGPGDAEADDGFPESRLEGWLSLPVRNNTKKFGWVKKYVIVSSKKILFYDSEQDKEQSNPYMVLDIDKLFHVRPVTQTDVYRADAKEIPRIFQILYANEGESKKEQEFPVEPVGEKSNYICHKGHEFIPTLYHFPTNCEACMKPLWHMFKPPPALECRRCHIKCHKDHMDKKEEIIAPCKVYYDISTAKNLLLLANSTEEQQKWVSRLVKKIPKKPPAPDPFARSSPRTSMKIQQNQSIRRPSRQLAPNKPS
Read-out: enzyme activity
Mode: inhibitor
Tested at: 0.5 µM
Reference: control
The remaining activity of O=c1c2ccccc2[nH]c(=S)n1CCN1CCC(=C(c2ccc(F)cc2)c2ccc(F)cc2)CC1 is reported as 98.8%.
With NCCNc1ncc(C(N)=O)c(Nc2cccc(C(F)(F)F)c2)n1 the remaining activity was 69.6%.
Cc1ccc(Nc2nccc(N(C)c3ccc4c(C)n(C)nc4c3)n2)cc1S(N)(=O)=O gave a remaining activity of 91.1%.
O=C1NC(=O)C(c2cn(CCCn3ccnc3)c3ccccc23)=C1Nc1ccccc1 has a remaining activity of 100%.
The remaining activity of CN(C)c1ccc(C=C2C(=O)Nc3ccccc32)cc1 is reported as 95.2%.
CC(C)[C@H](CO)Nc1nc(Nc2cc(N)cc(Cl)c2)c2ncn(C(C)C)c2n1 has a remaining activity of 101%.
With OCC(O)CCON=C1C(c2c(O)[nH]c3ccccc23)=Nc2ccccc21 (stereo not drawn) the remaining activity was 91%.
O=C1NC(=O)C(c2cn(CCCO)c3ncccc23)=C1c1cnccn1 has a remaining activity of 96%.
With Nc1ccc2ncnc(NCCc3ccc(Oc4ccccc4)cc3)c2c1 the remaining activity was 90.7%.
CO[C@H]1C[C@@H]2CC[C@@H](C)[C@@](O)(O2)C(=O)C(=O)N2CCCC[C@H]2C(=O)O[C@H]([C@H](C)C[C@@H]2CC[C@@H](O)[C@H](OC)C2)CC(=O)[C@H](C)/C=C(\C)[C@@H](O)[C@@H](OC)C(=O)[C@H](C)C[C@H](C)/C=C/C=C/C=C/1C has a remaining activity of 108%.
COc1ccc(CNC(=O)Nc2ncc([N+](=O)[O-])s2)cc1 has a remaining activity of 99.8%.
The remaining activity of Cc1cccc(-c2[nH]c(C(C)(C)C)nc2-c2ccc3c(c2)OCO3)n1 is reported as 104%.
O=C(Nc1cccc(Nc2cc(Nc3cccc(C(F)(F)F)c3)ncn2)c1)C1CC1 has a remaining activity of 99.2%.
Cc1ccc(NC(=O)c2ccc(CN3CCN(C)CC3)cc2)cc1Nc1nc(-c2cccnc2)cs1 has a remaining activity of 95.1%.

Mixed results
Cc1cc(-c2ccc(/N=N/c3ccc4c(S(=O)(=O)O)cc(S(=O)(=O)O)c(N)c4c3O)c(C)c2)ccc1/N=N/c1ccc2c(S(=O)(=O)O)cc(S(=O)(=O)O)c(N)c2c1O has an IC50 of 0.941 µM (Calcium/calmodulin-dependent protein kinase type II subunit delta (CAMK2D, Homo sapiens, UniProt Q13557); enzyme activity, inhibitor).
